# Assay results of several laboratories.
# Amino acid sequences for entries named in this document (tags omitted). Residues count along the entry.
# UniProt P00784, 134-345 limits assumed: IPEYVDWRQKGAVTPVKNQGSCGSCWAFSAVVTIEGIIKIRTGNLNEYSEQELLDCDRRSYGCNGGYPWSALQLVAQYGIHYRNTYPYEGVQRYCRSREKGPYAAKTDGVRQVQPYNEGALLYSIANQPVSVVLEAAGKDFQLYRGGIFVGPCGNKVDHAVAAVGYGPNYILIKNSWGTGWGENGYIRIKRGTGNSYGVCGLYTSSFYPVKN
# UniProt Q5M848, whole entry: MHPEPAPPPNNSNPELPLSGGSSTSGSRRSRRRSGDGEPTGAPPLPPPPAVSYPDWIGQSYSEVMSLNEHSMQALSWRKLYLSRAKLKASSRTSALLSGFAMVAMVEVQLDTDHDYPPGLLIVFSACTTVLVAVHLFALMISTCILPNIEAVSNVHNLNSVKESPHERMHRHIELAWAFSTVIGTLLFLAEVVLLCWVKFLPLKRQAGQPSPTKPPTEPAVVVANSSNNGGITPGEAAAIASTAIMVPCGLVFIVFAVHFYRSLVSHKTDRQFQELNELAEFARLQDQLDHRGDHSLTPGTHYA
# UniProt P23975, whole entry: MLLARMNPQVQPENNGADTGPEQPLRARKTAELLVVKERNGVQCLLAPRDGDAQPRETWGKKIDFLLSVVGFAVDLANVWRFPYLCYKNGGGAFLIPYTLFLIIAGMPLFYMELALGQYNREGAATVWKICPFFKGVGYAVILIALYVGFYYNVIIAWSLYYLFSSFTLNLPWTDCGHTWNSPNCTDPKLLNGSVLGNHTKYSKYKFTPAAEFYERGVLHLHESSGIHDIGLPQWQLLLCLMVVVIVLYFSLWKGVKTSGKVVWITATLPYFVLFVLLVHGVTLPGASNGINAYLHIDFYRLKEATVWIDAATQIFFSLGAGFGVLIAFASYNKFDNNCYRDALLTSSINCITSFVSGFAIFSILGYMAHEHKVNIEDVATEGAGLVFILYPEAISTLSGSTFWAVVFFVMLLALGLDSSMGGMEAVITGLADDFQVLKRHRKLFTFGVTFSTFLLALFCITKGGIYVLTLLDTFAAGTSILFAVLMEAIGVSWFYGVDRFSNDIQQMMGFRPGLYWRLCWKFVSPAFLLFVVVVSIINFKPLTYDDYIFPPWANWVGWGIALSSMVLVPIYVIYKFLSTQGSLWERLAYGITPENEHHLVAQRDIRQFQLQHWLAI
# UniProt Q9NSA0, whole entry: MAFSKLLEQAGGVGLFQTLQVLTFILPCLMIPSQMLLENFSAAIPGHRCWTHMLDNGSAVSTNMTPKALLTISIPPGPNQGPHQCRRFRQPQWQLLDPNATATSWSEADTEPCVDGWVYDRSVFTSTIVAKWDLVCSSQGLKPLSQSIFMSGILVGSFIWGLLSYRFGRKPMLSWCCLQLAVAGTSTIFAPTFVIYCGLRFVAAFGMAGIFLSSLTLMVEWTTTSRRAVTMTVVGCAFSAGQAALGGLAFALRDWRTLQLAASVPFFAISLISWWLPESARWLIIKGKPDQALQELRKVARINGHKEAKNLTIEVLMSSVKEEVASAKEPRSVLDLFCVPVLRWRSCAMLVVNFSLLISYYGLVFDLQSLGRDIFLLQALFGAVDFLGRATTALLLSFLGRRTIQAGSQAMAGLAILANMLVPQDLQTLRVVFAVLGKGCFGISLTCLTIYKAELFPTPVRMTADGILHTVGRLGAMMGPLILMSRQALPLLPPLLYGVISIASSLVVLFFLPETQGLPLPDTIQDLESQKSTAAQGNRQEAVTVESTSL
# UniProt Q8I719, whole entry: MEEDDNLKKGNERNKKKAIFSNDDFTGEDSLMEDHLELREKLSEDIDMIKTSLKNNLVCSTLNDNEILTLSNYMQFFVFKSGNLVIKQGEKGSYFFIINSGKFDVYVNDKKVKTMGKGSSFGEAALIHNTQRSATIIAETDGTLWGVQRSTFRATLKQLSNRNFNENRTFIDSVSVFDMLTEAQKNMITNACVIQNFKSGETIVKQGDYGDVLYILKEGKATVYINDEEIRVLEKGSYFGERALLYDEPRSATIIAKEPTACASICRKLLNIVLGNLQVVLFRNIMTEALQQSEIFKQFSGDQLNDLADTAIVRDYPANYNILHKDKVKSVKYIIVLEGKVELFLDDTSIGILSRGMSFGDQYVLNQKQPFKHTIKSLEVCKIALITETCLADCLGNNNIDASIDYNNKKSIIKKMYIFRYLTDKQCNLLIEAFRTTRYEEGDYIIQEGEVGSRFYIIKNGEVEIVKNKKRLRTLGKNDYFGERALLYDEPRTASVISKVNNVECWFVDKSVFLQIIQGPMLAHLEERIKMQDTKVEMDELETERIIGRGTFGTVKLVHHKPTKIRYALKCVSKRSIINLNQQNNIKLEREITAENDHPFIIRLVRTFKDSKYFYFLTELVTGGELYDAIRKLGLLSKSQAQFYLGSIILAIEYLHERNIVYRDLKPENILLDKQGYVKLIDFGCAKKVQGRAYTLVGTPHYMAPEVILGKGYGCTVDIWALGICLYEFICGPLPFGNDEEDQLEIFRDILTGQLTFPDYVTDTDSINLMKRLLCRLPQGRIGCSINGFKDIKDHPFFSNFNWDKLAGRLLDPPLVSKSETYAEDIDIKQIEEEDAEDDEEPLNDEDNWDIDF
# UniProt P25100, whole entry: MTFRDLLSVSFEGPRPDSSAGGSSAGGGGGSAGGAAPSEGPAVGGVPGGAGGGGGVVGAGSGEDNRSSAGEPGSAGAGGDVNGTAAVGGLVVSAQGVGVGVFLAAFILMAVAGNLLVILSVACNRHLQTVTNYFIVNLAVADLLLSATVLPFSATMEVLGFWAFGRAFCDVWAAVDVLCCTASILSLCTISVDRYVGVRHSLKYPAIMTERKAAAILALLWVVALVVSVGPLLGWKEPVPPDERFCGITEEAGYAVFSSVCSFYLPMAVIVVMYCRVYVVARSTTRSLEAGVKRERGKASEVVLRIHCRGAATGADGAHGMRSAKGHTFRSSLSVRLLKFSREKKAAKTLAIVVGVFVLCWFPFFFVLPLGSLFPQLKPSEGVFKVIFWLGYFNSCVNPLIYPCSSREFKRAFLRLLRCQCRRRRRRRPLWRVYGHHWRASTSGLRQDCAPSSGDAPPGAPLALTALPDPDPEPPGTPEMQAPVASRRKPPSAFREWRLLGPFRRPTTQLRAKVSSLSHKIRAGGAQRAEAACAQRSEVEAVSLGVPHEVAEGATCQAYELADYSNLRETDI
# UniProt P06935, whole entry, looked up: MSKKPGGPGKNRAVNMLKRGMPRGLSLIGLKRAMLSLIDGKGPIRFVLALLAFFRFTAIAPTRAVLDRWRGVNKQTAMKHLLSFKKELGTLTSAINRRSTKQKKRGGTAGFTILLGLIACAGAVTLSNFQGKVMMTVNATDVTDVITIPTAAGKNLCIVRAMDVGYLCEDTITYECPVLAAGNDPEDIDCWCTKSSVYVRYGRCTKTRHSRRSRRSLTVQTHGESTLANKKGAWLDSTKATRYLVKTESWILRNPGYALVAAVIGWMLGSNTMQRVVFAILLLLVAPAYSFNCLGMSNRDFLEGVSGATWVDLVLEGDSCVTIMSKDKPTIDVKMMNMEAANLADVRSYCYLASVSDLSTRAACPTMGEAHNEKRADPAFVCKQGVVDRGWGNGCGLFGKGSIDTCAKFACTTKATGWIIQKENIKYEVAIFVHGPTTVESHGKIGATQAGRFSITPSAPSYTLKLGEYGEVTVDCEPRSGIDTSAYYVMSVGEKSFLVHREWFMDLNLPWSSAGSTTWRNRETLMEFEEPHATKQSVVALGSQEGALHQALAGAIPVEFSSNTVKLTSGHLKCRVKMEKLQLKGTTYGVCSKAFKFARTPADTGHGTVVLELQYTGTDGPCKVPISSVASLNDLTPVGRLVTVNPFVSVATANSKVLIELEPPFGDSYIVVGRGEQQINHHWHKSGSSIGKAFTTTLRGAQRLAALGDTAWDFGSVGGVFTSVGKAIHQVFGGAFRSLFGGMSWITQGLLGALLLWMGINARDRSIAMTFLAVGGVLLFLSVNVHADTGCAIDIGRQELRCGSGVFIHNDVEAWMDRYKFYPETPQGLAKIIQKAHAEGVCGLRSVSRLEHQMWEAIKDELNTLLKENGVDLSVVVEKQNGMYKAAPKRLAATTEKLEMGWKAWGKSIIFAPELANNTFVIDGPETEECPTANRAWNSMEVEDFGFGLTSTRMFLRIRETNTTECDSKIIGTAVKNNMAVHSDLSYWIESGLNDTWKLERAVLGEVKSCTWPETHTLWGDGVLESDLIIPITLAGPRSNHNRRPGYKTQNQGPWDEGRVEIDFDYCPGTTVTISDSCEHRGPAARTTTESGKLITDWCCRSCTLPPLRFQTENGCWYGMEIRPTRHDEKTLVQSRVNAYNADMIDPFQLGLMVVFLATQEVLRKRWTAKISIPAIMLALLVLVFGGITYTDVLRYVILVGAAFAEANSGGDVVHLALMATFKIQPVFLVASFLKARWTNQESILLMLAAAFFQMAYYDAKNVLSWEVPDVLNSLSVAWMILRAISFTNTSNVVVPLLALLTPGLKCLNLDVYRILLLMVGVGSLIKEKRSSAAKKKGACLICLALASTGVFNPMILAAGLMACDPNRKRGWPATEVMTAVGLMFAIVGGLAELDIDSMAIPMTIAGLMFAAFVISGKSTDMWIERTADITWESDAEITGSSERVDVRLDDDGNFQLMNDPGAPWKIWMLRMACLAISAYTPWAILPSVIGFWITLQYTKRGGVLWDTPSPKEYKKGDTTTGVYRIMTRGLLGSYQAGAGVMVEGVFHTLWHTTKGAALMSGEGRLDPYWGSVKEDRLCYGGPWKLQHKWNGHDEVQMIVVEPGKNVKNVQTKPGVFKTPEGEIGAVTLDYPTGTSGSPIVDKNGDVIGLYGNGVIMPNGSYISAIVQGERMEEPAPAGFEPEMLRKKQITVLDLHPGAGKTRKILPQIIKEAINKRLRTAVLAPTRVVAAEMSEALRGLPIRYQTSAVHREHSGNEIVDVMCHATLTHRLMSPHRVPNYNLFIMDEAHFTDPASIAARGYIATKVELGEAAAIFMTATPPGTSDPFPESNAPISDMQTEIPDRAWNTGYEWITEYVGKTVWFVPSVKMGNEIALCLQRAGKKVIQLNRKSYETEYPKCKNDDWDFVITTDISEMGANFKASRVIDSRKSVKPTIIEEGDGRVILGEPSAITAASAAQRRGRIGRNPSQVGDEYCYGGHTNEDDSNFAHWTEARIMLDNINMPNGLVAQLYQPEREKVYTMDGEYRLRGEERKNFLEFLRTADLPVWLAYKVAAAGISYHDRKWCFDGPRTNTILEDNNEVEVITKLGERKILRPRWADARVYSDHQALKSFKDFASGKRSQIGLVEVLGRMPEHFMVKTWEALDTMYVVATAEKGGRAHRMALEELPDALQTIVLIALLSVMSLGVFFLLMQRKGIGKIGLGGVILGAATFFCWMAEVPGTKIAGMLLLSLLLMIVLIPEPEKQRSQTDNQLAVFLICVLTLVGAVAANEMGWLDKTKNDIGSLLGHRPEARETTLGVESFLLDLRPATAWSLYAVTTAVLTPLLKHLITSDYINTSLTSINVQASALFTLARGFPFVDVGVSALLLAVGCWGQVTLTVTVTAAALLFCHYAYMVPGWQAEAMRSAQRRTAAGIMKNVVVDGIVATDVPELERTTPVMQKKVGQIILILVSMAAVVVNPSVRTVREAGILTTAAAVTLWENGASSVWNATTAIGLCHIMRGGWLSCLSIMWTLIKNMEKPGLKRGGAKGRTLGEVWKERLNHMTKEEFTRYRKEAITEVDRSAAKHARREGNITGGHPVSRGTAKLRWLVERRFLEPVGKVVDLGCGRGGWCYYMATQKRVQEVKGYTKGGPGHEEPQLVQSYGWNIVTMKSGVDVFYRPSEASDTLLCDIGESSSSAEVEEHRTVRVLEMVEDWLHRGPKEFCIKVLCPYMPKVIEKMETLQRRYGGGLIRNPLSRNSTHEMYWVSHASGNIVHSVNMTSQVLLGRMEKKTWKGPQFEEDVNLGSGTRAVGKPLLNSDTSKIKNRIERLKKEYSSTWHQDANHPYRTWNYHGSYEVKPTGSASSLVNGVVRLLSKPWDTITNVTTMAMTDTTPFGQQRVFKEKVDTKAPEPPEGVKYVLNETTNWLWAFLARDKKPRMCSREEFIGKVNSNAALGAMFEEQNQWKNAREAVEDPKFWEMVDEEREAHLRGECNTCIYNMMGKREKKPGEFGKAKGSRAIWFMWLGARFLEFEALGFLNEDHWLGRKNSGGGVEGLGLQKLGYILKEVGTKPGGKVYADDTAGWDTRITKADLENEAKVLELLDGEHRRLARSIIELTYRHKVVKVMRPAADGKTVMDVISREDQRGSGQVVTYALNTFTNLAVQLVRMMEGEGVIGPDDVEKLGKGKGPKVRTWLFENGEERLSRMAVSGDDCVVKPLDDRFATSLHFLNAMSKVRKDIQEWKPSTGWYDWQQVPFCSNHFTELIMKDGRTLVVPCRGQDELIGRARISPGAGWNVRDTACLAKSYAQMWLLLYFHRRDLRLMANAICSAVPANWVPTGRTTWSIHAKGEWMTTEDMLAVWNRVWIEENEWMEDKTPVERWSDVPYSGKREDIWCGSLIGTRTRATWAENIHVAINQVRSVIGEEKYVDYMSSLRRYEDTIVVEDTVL
# Protocols differ between the studies behind these lines. ± marks the error that the study gave.
# Papain: Papain (Carica papaya, UniProt P00784)
Compound,target,test,test system,conditions,scale,inhibition
Cc1cnccc1C(=O)Nc1nn(Cc2ccc(Cl)cc2Cl)c2ccccc12,"Calcium release-activated calcium channel protein 1, with STIM1 (Rattus norvegicus, UniProt Q5M848)","Ca2+ influx, inhibitor",RBL-2H3,"30 µM, added: thapsigargin",,~50%
CCCOC(=O)[C@@]12C[C@@H]1[C@@H](n1cnc3c(NC)nc(C#Cc4ccc(Cl)s4)nc31)[C@H](O)[C@@H]2O,"SLC6A2 (Homo sapiens, UniProt P23975)","binding, radioligand binding",HEK293,"10 µM, negative means enhanced binding, added: [3H]nisoxetine",,36 ± 3%
CCNC(=O)C(=O)[C@H](Cc1ccccc1)NC(=O)[C@H]1CCC(=O)N1Cc1ccc(F)cc1,Papain,"enzyme activity, inhibitor",,1 µM,,16.3%
O=C(O)CC1Sc2nnc(-c3cccs3)n2N=C1c1ccc(Cl)cc1 (centres unmarked),"UDP-galactopyranose mutase (Klebsiella pneumoniae, UniProt Q48485)","enzyme activity, inhibitor, HPLC",,100 µM,,95%
O=C(NC1CC1)C(=O)[C@H](Cc1ccccc1)NC(=O)[C@H]1CCC(=O)N1Cc1ccccc1,Papain,"enzyme activity, inhibitor",,1 µM,,2.9%
COc1ccccc1N1CCN(CCCCN2CCCc3ccccc3C2=O)CC1,"DRD3 (Homo sapiens, UniProt P35462)",radioligand binding,,"concentration not given, added: [3H]N-methylspiperone",,98.6%
NC(Cc1cc(I)c(O)c(I)c1)C(=O)O (centres unmarked),"SLC22A11 (Homo sapiens, UniProt Q9NSA0)","6-carboxyfluorescein uptake, inhibitor",CHO expressing human OAT4,"25 µM, 5 min, added: 25 µM 6-carboxyfluorescein",,79.5%
O=C(CCl)c1ccc2c(Nc3ccccc3)ncnc2c1,"EPHB3 (Homo sapiens, UniProt P54753)","kinase activity, inhibitor",,2 µM,relative to: DMSO,> 80%
CS(=O)(=O)Cc1onc(-c2cccc(Cl)c2)c1-c1ccnc(N[C@@H]2CCN(Cc3nccs3)C2)n1,"cGMP-dependent protein kinase (PKG, Plasmodium falciparum, UniProt Q8I719)","kinase activity, inhibitor, IMAP",,10 µM,,86.5 ± 0.7%
COc1ccc(CN[C@@H]2CO[C@H](C(c3ccccc3)c3ccccc3)C[C@H]2O)cc1,"ADRA1D (Homo sapiens, UniProt P25100)",radioligand binding,,"10 µM, added: [3H]prazosin",,30%
N=C(N)NCCC[C@H](NC(=O)c1ccccc1)C(=O)N[C@@H](CCCCN)C(=O)N[C@@H](C(N)=O)c1ccc(OCc2ccccc2)cc1,"Genome polyprotein, NS2B-NS3 protease (West Nile virus, UniProt P06935)","enzyme activity, inhibitor, FRET",,"50 µM, added: substrate 50 µM",,91 ± 5%

# Some of these lines once more:
Compound,target,test,test system,conditions,scale,inhibition
Cc1cnccc1C(=O)Nc1nn(Cc2ccc(Cl)cc2Cl)c2ccccc12,"Calcium release-activated calcium channel protein 1, with STIM1 (Rattus norvegicus, UniProt Q5M848)","Ca2+ influx, inhibitor",RBL-2H3,"30 µM, added: thapsigargin",,~50%
